Experimental data of several laboratories.
A part holds a random share of what one study measured. Substitutions count along the parent as printed.

Study 1 — target: CCNB3, cyclin fold, Cln2 fusion (human); technique: yeast growth competition, sequencing; sample: yeast; setting: weak parent motif; relative to: not given; direction: higher = stronger binding; endpoint: normalised enrichment score
Starting sequence: ORC1 docking peptide (human); PRARKRLELGNLG; partner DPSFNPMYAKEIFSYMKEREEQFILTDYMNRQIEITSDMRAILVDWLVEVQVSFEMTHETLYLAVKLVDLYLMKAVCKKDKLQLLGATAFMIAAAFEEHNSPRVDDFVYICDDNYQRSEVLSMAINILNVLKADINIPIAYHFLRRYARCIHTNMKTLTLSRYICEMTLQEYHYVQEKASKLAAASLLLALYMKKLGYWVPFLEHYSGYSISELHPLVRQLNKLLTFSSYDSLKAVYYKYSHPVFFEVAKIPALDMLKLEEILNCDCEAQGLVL
Change = G13C; result = 0.238
Change = G13P; result = 0.143
Change = A3K; result = -0.0309
Change = L12N; result = 0.0323
Change = E8L; result = 0.381
Change = L7F; result = -0.168
Change = N11S; result = 0.258
Change = E8Q; result = 0.345
Change = G13I; result = 0.253
Change = G13L; result = -0.359
Change = G10F; result = 0.151
Change = K5C; result = 0.00427
Change = A3V; result = 0.0357
Change = L7K; result = 0.547
Change = L9M; result = 0.204

Study 2 — technique: protein-binding microarray; molecule type: double-stranded DNA, one strand shown; sample: in vitro; concentration: 250 nM; setting: 60-bp whole probe; added: salmon DNA 0.4 mg/ml; relative to: random background probes; direction: higher = stronger binding; endpoint: log fluorescence; constant ends, left off below: GCCTAGCAC … GTCTTGATTCGCTTGACGCTGCTG
Target: Interferon regulatory factor 7, full length, phosphomimetic (IRF7, Homo sapiens, UniProt Q92985, residues 1-503, S101K/S471D/S472D/S475D/S476D/S477D/S483D/S484D/S487D)
Residues (chain): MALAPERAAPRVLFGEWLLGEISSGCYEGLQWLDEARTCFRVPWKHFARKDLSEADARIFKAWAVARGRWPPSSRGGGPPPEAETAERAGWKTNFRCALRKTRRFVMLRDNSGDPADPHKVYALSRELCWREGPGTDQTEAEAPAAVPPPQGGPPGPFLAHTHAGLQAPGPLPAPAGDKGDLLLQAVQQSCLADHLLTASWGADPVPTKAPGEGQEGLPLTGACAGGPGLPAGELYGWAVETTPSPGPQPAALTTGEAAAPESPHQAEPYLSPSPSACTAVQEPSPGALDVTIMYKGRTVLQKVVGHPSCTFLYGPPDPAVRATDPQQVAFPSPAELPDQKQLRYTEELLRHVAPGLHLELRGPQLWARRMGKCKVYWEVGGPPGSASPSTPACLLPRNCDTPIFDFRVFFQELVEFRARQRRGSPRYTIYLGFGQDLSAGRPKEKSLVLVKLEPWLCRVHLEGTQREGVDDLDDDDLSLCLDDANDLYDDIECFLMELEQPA
Oligonucleotide = TTAGATCTCCGACTGGATTAGTGCTAG; result = -0.137 z-score
Oligonucleotide = TCATCTTTAACATATTCTACTGTGCTA; result = 0.596 z-score
Oligonucleotide = TTAGGTTTCGGGTATCGGGTAGTGCTA; result = 6.66 z-score
Oligonucleotide = GACGATTGCAGTTTCGAGACGTGCTAG; result = 3.1 z-score
Oligonucleotide = TTAGGTTTCCGGTTTCGGTTAGTGCTA; result = 10.8 z-score
Oligonucleotide = ACATGCTTCGAGATCTCCGAGTGCTAG; result = 0.181 z-score
Oligonucleotide = GACGGTCTCGGACTGGGTACGTGCTAG; result = 0.172 z-score
Oligonucleotide = TGAGGACTGGGGTTTCGGTTAGTGCTA; result = 5.02 z-score
Oligonucleotide = TTAGGTTTCTTTTATTCAAAGTGCTAG; result = 3.2 z-score
Oligonucleotide = TTAGATATCGGGGCTGGATTAGTGCTA; result = -0.355 z-score
Oligonucleotide = CTAGGTCTCCTTTTCCTTTAGTGCTAG; result = 2.24 z-score
Oligonucleotide = CTAGGTATCGACTATCGGTTAGTGCTA; result = 0.609 z-score
Oligonucleotide = GTAGGACTGGGTCTCGGTTAGTGCTAG; result = 0.736 z-score
Oligonucleotide = GACGGACTGGGTTTCGGGACGTGCTAG; result = 1.66 z-score
Oligonucleotide = TTAGGTATCGGGTTTCGTTTAGTGCTA; result = 7.69 z-score
Oligonucleotide = TGAGGTATCGACTATCGGTTAGTGCTA; result = -0.0383 z-score
Oligonucleotide = GACGAACTGGGGTATCGATACGTGCTA; result = -0.265 z-score
Oligonucleotide = TCATAGGTTTCACTTTCCACTGTGCTA; result = 6.3 z-score
Oligonucleotide = TTAGGACTGCTACTGATTTAGTGCTAG; result = -0.581 z-score
Oligonucleotide = TCACTTCCCCATCTTGTACTGTGCTAG; result = 2.17 z-score
Oligonucleotide = GACGGTATCGGTTTTCGGGACGTGCTA; result = 3.89 z-score
Oligonucleotide = GGCGGTTTCGGACTGGGGACGTGCTAG; result = 3.46 z-score

Study 3 — technique: protein binding microarray; molecule type: double-stranded DNA, one strand shown; sample: in vitro; concentration: not given; relative to: not given; direction: higher = stronger binding; endpoint: E-score
Target: Histone acetyltransferase KAT6A, winged helix 2, GST fusion (KAT6A, Homo sapiens, UniProt Q92794, residues 85-181)
Setting: 8-mer, flanks averaged, mean of 2 arrays, mostly near background
Construct (chain): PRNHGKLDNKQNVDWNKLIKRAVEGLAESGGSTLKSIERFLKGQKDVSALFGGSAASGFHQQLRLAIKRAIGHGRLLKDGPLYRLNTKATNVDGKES
Oligonucleotide = CCGAATAC; result = 0.0652
Oligonucleotide = GGTACTAC; result = -0.0214
Oligonucleotide = CGTTGTGA; result = 0.0438
Oligonucleotide = AAAGGGGG; result = 0.0941
Oligonucleotide = GAAAGTTA; result = 0.0631
Oligonucleotide = AGTGTCGC; result = 0.141
Oligonucleotide = AAATAAAA; result = 0.0566
Oligonucleotide = AATATGAC; result = -0.0813
Oligonucleotide = ATAAGCAC; result = 0.0788
Oligonucleotide = CCGCGTAC; result = 0.144
Oligonucleotide = ATGAGCCA; result = -0.088
Oligonucleotide = AAGGTCCG; result = 0.111
Oligonucleotide = GAACAACC; result = -0.0329
Oligonucleotide = TCGTCTAA; result = -0.111
Oligonucleotide = ACCCTCAC; result = 0.0362
Oligonucleotide = ATTAATCG; result = 0.11
Oligonucleotide = ACCGAGGA; result = 0.0444
Oligonucleotide = AGATTTGG; result = -0.0711
Oligonucleotide = AAGACAAG; result = 0.0846
Oligonucleotide = CAAACCCG; result = 0.131
Oligonucleotide = GATTACAC; result = 0.0848
Oligonucleotide = CAGAGTTA; result = -0.0701
Oligonucleotide = GTCTGTCA; result = -0.0386
Oligonucleotide = TGACATAA; result = -0.0948
Oligonucleotide = AGAAGCAG; result = 0.0984

Study 4 — technique: RNA Bind-n-Seq; molecule type: RNA; sample: in vitro; concentration: not given; setting: RNA with constant flanks, ends assumed; relative to: input RNA pool; direction: higher = stronger binding; endpoint: bound/input enrichment
Target: RING finger protein unkempt homolog, zinc fingers 1-6, GST-SBP tag (UNK, Homo sapiens, UniProt Q9C0B0, residues 30-357)
UniProt Q9C0B0, sequence (30-357, looked up): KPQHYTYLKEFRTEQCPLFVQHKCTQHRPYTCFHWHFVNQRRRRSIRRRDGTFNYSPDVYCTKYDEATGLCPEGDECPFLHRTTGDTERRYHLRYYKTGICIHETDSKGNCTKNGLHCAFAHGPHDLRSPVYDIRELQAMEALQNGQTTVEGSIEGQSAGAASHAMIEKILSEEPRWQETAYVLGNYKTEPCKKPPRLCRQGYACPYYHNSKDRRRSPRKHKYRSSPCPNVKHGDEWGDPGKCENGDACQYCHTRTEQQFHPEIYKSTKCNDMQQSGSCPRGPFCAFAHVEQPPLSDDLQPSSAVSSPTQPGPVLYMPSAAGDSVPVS
Constant ends, left off below: GGGAGUUCUACAGUCCGACGAUC … CAACAGAGGAUUGAGCAUCA
Oligonucleotide = GAUCCUCCACGAUUACGUGAAUAAAAUGAUGGAACCAAAAAUCACUGUCACUUUACAACUCCGGUUUUACUCUUUUCUUUCUACAGACCAUAUUUUUAAAGAAAUGUUUAUACAAUAAUU; result = 0.218 ratio
Oligonucleotide = CAGCAUGUCAUAGAAACCUUGAUUGGCAAAAAGCAGCAGAUCUCUCUUGCCACCCAGAUGGUCCGGAUGAUUCUGAAGAUUGAUGACAUCCGUAAGCCUGGAGAAUCUGAAGAAUAAACU; result = 0.141 ratio
Oligonucleotide = GUCCUGAAGCUUUGUGUUUGGCUGCACCUGCAUAAGCUGCUACAAAUAGAAUAAAGAAUUCACCGCCUGUAUCUAUCAUUUAGAUGCAUGGAAAAAUGGGCUUUGCACACAAUGGGUUUG; result = 0.955 ratio
Oligonucleotide = AAGAAGAAGCAAGGGGAAGAUAACUCUCACACACAGGACACAGAAGACCUAGAAAAGGACACCCGAGAAGAGCUUCCAGUGAAUACCUCAAAAGCCCGACCAAAACAGGAGAAAGCUUGU; result = 0.358 ratio
Oligonucleotide = UGCUGCAGGAAAAGAGAUCAUAUGGCACGGGCGGACAAAAGAAGAACCAGCUCAUUAUUGCCGUAUUUGUGAGGUGGAGGUUUUUGAUCUGCUUUUUGUCACUAAUGAGAGUAAUUCUCG; result = 0.1 ratio
Oligonucleotide = CUGCUGUCCAAGAUCGAUGGCGUUGAGCAGCUGAACAACAUCCUCGUUAUCGGAAUGACCAACCGACCAGAUUUGAUAGACGAAGCUCUCCUUCGACCCGGAAGACUGGAAGUUAAAAUG; result = 0.333 ratio

Study 5 — technique: RNA Bind-n-Seq; molecule type: RNA; sample: in vitro; concentration: 200 nM; setting: whole 134-nt RNA, ends assumed; added: 150 mM KCl; relative to: input library; direction: higher = stronger binding; endpoint: log2 enrichment
Target: Ras GTPase-activating protein-binding protein 1, full length (G3BP1, Homo sapiens, UniProt Q13283)
UniProt Q13283, sequence (whole entry, looked up): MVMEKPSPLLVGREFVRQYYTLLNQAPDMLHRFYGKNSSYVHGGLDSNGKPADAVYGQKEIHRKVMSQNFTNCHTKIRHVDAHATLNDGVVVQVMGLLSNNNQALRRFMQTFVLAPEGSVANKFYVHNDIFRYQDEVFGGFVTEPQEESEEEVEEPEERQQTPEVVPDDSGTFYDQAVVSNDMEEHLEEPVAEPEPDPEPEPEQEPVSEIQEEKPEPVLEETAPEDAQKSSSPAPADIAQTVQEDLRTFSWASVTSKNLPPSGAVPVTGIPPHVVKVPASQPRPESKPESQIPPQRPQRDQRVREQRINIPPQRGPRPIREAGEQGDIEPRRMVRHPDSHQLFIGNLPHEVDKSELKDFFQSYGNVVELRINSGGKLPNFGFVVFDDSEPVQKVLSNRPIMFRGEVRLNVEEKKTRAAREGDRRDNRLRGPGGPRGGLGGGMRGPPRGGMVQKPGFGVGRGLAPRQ
Constant ends, left off below: GGGAGUUCUACAGUCCGACGAUC … UGGAAUUCUCGGGUGUCAAGG
Oligonucleotide = UCUGUUUCCUCUGCCAGUGGCAAUGCAACACCUAACACUCCUGGGGAUGAGUCUCCCUGUGGUAUUAUUAUUCCUCAUGAAAACUCACCA; result = 0.248
Oligonucleotide = ACCAUGCAGGUGGGCAUCUUUGAGAAGUGGGGCAAGGGGGGGAUAGGGAGGGGGGUAACACUUUGGGAACAGGUGGUCCCAGGUCGUUUC; result = 1.38
Oligonucleotide = AAGUCCUGUGCUACACAUCGUAUGUACCGAAUCGGGGAAAAGGAAAAGGAAAAGGGAAAGUAUUAUGUUACGCCGUUCGGAUCUGCACUU; result = -0.562
Oligonucleotide = ACCAUGCAGGUGGGCAUCUUUGGGAAGUGGGGCAAGGGGGGGAUAGGGAGGGGGGUAACACUUUGGGAACAGGUGGUCAAAGGUCGUUUC; result = 1.29
Oligonucleotide = CUGUGCUACACAUCGUAUGUACCGAAUCGGGGUUUUUUUGGGGUUUUUUUGGUUUUUUUGGGAAAGUAUUAUGUUACGCCGUUCGGAUCU; result = -0.89
Oligonucleotide = UUCCUCAAGUCCUGUGCUACACAUCGUAUGUACCGAAUCGGUGGUGGAGGAAAGUAUUAUGUUACGCCGUUCGGAUCUGCACUUCCAGCA; result = -0.756
Oligonucleotide = ACCAUGCAGGUGGGCAUCUUUGGGAAGUGGGGCAAGGGGGGGAUAGGGAGGGGGGUAACACUUUGGGAACAGGUGGUCCCAGGUCGUUCC; result = 1.12
Oligonucleotide = GUCCUGUGCUACACAUCGUAUGUACCGAAUCGGGAAAAAGGAAAAAGGGGAAAAAGGGAAAGUAUUAUGUUACGCCGUUCGGAUCUGCAC; result = -0.703
Oligonucleotide = AAGUCCUGUGCUACACAUCGUAUGUACCGAAUCGGAAAAAAAGGAAAAAGGUUUGGAAAGUAUUAUGUUACGCCGUUCGGAUCUGCACUU; result = -1.78
Oligonucleotide = UCAAGUCCUGUGCUACACAUCGUAUGUACCGAAUCGGAAAAAAAGGAGGAAAGGAAAGUAUUAUGUUACGCCGUUCGGAUCUGCACUUCC; result = -1.08
Oligonucleotide = UGUGCUACACAUCGUAUGUACCGAAUCGGGGCCCCCCCGGGGCCCCCCCGGGCCCCCCCGGGAAAGUAUUAUGUUACGCCGUUCGGAUCU; result = -1.41
Oligonucleotide = UGGGAGGUGGAUUUUGUUUAUUUUUUUAGCUCAUUUCCAGGGGUGGGAAUUUUUUUUUAAUAUGUGUCAUGAAUAAAGUUGUUUGUGAAA; result = 0.7
Oligonucleotide = UAAGGCCAGUAAAAUUUUAGUACCUGGAGGUUUGACUCUAAUUUUUGCACUGAUGGUGCCAAAGGGCCCUGAGUCAAAAGGAUAGCCAAG; result = -2.11
Oligonucleotide = UCCUGUGCUACACAUCGUAUGUACCGAAUCGGUUUUUUUGGGUUUUUUUGGUUUUUUUGGAAAGUAUUAUGUUACGCCGUUCGGAUCUGC; result = -0.297

Repeated from above (study 3):
Oligonucleotide = ATAAGCAC; result = 0.0788
Oligonucleotide = CCGCGTAC; result = 0.144
Oligonucleotide = ATGAGCCA; result = -0.088
Oligonucleotide = AAGGTCCG; result = 0.111
Oligonucleotide = GAACAACC; result = -0.0329
Oligonucleotide = TCGTCTAA; result = -0.111
Oligonucleotide = ACCCTCAC; result = 0.0362
Oligonucleotide = ATTAATCG; result = 0.11
Oligonucleotide = ACCGAGGA; result = 0.0444
Oligonucleotide = AGATTTGG; result = -0.0711
Oligonucleotide = AAGACAAG; result = 0.0846
